Experimental data from different studies.
Each line is one published result; not all experiments were run side by side. Numbers after ± are the reported error. In brackets after ≈: the same amount, converted by molar mass.
UniProt Q9Y5Y9, sequence (whole entry, looked up): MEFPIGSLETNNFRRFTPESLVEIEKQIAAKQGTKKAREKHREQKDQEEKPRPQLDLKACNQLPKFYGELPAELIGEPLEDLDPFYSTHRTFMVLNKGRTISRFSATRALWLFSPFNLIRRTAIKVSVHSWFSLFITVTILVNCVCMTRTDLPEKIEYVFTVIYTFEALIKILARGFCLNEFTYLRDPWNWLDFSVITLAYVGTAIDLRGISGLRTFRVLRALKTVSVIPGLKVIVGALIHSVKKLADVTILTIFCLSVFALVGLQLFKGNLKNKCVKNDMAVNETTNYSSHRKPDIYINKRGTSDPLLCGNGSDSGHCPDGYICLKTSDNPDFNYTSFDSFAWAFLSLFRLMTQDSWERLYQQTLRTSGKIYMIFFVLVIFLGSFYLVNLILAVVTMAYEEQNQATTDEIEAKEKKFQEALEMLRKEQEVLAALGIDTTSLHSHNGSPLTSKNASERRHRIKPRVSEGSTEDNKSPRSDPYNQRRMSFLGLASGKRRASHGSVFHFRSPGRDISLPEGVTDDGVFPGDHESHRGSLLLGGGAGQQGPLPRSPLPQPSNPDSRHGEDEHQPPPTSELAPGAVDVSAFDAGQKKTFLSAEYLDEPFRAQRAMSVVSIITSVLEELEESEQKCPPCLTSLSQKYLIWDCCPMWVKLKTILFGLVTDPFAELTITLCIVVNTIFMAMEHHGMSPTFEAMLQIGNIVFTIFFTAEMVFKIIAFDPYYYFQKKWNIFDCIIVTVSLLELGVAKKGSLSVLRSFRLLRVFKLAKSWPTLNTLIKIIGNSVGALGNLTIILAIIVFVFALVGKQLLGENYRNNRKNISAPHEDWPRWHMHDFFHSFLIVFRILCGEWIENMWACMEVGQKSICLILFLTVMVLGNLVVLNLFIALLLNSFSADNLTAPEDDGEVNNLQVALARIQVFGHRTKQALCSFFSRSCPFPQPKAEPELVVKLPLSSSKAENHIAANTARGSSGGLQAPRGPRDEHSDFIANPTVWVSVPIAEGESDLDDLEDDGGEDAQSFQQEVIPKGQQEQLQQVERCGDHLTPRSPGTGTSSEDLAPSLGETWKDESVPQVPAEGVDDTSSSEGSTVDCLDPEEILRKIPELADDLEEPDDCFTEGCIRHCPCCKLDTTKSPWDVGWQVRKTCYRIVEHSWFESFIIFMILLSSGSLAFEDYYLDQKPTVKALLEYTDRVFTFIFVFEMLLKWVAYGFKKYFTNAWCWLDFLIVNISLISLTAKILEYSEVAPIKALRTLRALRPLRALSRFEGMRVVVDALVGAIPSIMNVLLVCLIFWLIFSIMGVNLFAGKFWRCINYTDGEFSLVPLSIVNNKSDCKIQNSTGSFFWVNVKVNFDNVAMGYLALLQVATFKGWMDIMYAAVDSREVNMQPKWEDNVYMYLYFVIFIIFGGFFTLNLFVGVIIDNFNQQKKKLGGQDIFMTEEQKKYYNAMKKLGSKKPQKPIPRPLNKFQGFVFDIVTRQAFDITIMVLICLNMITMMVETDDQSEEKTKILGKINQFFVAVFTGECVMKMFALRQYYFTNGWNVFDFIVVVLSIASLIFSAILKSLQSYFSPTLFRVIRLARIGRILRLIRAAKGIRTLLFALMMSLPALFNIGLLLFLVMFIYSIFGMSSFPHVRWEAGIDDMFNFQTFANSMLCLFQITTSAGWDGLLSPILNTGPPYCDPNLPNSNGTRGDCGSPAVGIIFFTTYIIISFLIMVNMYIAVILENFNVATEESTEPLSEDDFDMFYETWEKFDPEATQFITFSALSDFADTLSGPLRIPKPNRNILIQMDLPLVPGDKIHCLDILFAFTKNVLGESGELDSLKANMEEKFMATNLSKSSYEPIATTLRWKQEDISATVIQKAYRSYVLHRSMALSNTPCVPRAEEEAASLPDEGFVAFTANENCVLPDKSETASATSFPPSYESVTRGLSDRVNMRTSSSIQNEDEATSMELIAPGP
UniProt P43219, sequence (whole entry, looked up): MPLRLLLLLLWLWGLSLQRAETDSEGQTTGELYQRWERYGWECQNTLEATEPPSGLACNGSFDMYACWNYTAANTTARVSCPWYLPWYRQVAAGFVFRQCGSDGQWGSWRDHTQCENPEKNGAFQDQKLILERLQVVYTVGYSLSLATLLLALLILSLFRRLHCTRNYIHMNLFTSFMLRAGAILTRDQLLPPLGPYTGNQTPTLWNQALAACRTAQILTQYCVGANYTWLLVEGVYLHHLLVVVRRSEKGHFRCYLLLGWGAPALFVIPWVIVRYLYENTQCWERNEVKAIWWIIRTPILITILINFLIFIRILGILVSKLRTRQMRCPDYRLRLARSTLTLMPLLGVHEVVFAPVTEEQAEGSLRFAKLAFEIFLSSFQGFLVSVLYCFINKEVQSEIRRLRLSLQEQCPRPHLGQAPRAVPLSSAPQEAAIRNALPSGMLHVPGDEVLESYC

| Compound | tested on | test | test system | setting | quantity | result |
| --- | --- | --- | --- | --- | --- | --- |
| CC(C)n1ccn2cc(C(=O)NCc3ccc(F)cc3F)c(=O)c(O)c2c1=O | HIV-1 | viral replication, single-round vector infection | IN E138K/Q148K |  | EC50 | 56.1 ± 8.9 nM |
| O=C(O)C[C@@H]1NC(=O)[C@H](Cc2ccc(OS(=O)(=O)O)cc2)NC(=O)c2cccc(c2)CNC(=O)[C@H](Cc2ccc(OS(=O)(=O)O)cc2)NC(=O)[C@H](CC(=O)O)NC1=O | HIV-1 | viral entry | NP2.CD4.CCR5, TA1 engineered Env pseudotype | 100 µM | inhibition | > 50% |
| CCCCCCCCCCCCCCCC(=O)N[C@@H](CCC(=O)NCCOCCOCCC(=O)NCCOCCOCCC(=O)NCCCC[C@H](NC(=O)[C@H](CC(=O)O)NC(=O)[C@H](CC(C)C)NC(=O)[C@H](Cc1ccc(O)cc1)NC(=O)[C@H](CCCCN)NC(=O)[C@H](CO)NC(=O)[C@H](Cc1ccc(O)cc1)NC(=O)[C@H](CC(=O)O)NC(=O)[C@H](CO)NC(=O)[C@@H](NC(=O)[C@H](Cc1ccccc1)NC(=O)[C@@H](NC(=O)CNC(=O)[C@H](CCC(N)=O)NC(=O)[C@@H](CO)NC(=O)[C@@H](N)Cc1c[nH]cn1)[C@@H](C)O)[C@@H](C)O)C(=O)N[C@@H](CCCNC(=N)N)C(=O)N[C@@H](CCCNC(=N)N)C(=O)N[C@@H](C)C(=O)N[C@@H](CCC(N)=O)C(=O)N[C@@H](CC(=O)O)C(=O)N[C@@H](Cc1ccccc1)C(=O)N[C@H](C(=O)N[C@@H](CCC(N)=O)C(=O)N[C@@H](Cc1c[nH]c2ccccc12)C(=O)N[C@@H](CC(C)C)C(=O)N[C@@H](CC(C)C)C(=O)N[C@@H](CC(N)=O)C(=O)N[C@H](C(=O)NCC(=O)NCC(=O)N1CCC[C@H]1C(=O)N[C@@H](CO)C(=O)N[C@@H](CO)C(=O)NCC(=O)N[C@@H](C)C(=O)N1CCC[C@H]1C(=O)N1CCC[C@H]1C(=O)N1CCC[C@H]1C(=O)N[C@@H](CO)C(N)=O)[C@@H](C)O)C(C)C)C(=O)O |  |  | rhesus monkey, female | subcutaneous, 20 µg/kg once daily, 28 days | total bilirubin | 3.5 ± 1.2 µmol/L |
| Cc1cc(/C=C/C#N)cc(C)c1Nc1nc(Nc2ccc(C#N)cc2)ncc1N | HIV-1 | viral replication, single-round infection | RT mutant H221Y |  | EC50 | 0.9 ± 0.1 nM |
| Cc1cc(C)cc(S(=O)(=O)c2c(C(=O)NC3CC4(C3)CN(Cc3n[nH]c(=O)[nH]3)C4)[nH]c3ccc(Cl)cc23)c1 | HIV-1 | viral replication | MT-4, L100I mutant |  | EC50 | 47 ± 21 nM |
| CCCCCCCCCCCCCCCC(=O)N[C@@H](CCC(=O)NCCCC[C@H](NC(=O)[C@H](CC(=O)O)NC(=O)[C@H](CO)NC(=O)[C@@H](NC(=O)[C@H](Cc1ccccc1)NC(=O)[C@@H](NC(=O)CNC(=O)[C@H](CCC(N)=O)NC(=O)[C@H](C)NC(=O)[C@@H](Cc1ccc(O)cc1)NC(C)=O)[C@@H](C)O)[C@@H](C)O)C(=O)N[C@@H](CO)C(=O)N[C@@H](CCCCN)C(=O)N[C@@H](Cc1ccc(O)cc1)C(=O)N[C@@H](CC(C)C)C(=O)N[C@@H](CC(=O)O)C(=O)N[C@@H](CCC(=O)O)C(=O)N[C@@H](CCCNC(=N)N)C(=O)N[C@@H](C)C(=O)N[C@@H](C)C(=O)N[C@@H](CCC(N)=O)C(=O)N[C@@H](CC(=O)O)C(=O)N[C@@H](Cc1ccccc1)C(=O)N[C@H](C(=O)N[C@@H](CCC(N)=O)C(=O)N[C@@H](Cc1c[nH]c2ccccc12)C(=O)N[C@@H](CC(C)C)C(=O)N[C@@H](CC(C)C)C(=O)N[C@@H](CCC(=O)O)C(=O)NCC(=O)NCC(=O)N1CCC[C@H]1C(=O)N[C@@H](CO)C(=O)N[C@@H](CO)C(=O)NCC(=O)N[C@@H](C)C(=O)N1CCC[C@H]1C(=O)N1CCC[C@H]1C(=O)N1CCC[C@H]1C(=O)N[C@@H](CO)C(N)=O)C(C)C)C(=O)O |  |  | cynomolgus monkey, plasma | intravenous, 0.0031 mg/kg | half-life | 3.47 to 3.56 h |
| CC[C@H](C)[C@H](NC(=O)[C@H](CCCCN)NC(=O)[C@H](CCCCN)NC(=O)[C@H](CC(C)C)NC(=O)[C@H](Cc1c[nH]c2ccccc12)NC(=O)CN)C(=O)NCC(=O)N[C@@H](CCCCN)C(=O)N[C@@H](CCCCN)C(=O)N[C@H](C(=O)N[C@@H](CCC(=O)O)C(=O)N[C@@H](CCCNC(=N)N)C(=O)N[C@H](C(=O)NCC(=O)N[C@@H](CCC(N)=O)C(=O)N[C@@H](Cc1c[nH]cn1)C(=O)N[C@H](C(=O)N[C@@H](CCCNC(=N)N)C(=O)N[C@@H](CC(=O)O)C(=O)N[C@@H](C)C(=O)N[C@H](C(=O)N[C@H](C(=O)N[C@@H](CCC(N)=O)C(=O)N[C@H](C(=O)N[C@H](C(=O)NCC(=O)N[C@H](C(=O)N[C@@H](C)C(=O)N[C@@H](CCC(N)=O)C(=O)N[C@@H](CCC(N)=O)C(=O)N[C@@H](C)C(=O)N[C@@H](C)C(=O)N[C@@H](CC(N)=O)C(=O)N[C@H](C(=O)N[C@@H](C)C(=O)N[C@@H](C)C(=O)N[C@H](C(=O)N[C@@H](CC(C)C)C(=O)N[C@@H](CCCCN)C(N)=O)[C@@H](C)O)C(C)C)C(C)C)[C@@H](C)CC)[C@@H](C)O)[C@@H](C)CC)[C@@H](C)O)[C@@H](C)O)C(C)C)[C@@H](C)CC | Pseudomonas aeruginosa | broth microdilution | ATCC 27853, CAMHB |  | MIC | 64 µg/mL (≈ 15.2 µM) |
| COc1ccc2c(c1)OCCCC=CCCCCN(CC(O)C(Cc1ccccc1)NC(=O)OC1COC3OCCC13)S2(=O)=O (mixture of isomers) | HIV-1 | viral replication | PHA-stimulated PBMCs, HIV-1MDR/TM X4 multidrug-resistant |  | IC50 | 72 ± 14 nM |
| CC[C@H](C)[C@H](NC(=O)[C@H](CCCN)NC(=O)[C@H](CC(=O)O)NC(=O)[C@H](CC(C)C)NC(=O)C(C)(CC(C)C)NC(=O)[C@@H](NC(=O)[C@H](CO)NC(=O)[C@H](Cc1ccc(O)cc1)NC(=O)[C@H](CC(=O)O)NC(=O)[C@H](CO)NC(=O)[C@@H](NC(=O)[C@H](Cc1ccccc1)NC(=O)[C@@H](NC(=O)CNC(=O)[C@H](CCC(=O)O)NC(=O)C(C)(C)NC(=O)[C@@H](N)Cc1ccc(O)cc1)[C@@H](C)O)[C@@H](C)CC)[C@@H](C)CC)C(=O)N[C@@H](Cc1c[nH]cn1)C(=O)N[C@@H](CCC(N)=O)C(=O)NC(C)(C)C(=O)N[C@@H](CC(=O)O)C(=O)N[C@@H](Cc1ccccc1)C(=O)N[C@H](C(=O)N[C@@H](CCC(=O)O)C(=O)N[C@@H](Cc1ccc(O)cc1)C(=O)N[C@@H](CCCCNC(=O)COCCOCCNC(=O)COCCOCCNC(=O)CC[C@H](NC(=O)CCCCCCCCCCCCCCCCCCC(=O)O)C(=O)O)C(=O)N[C@@H](CC(C)C)C(=O)N[C@@H](CCC(=O)O)C(=O)NCC(=O)NCC(=O)N1CCC[C@H]1C(=O)N[C@@H](CO)C(=O)N[C@@H](CO)C(=O)NCC(=O)N[C@@H](C)C(=O)N1CCC[C@H]1C(=O)N1CCC[C@H]1C(=O)N1CCC[C@H]1C(=O)N[C@@H](CO)C(N)=O)C(C)C (stereo partly shown) | Gastric inhibitory polypeptide receptor (Rattus norvegicus, UniProt P43219) | cAMP, agonist | HEK293 |  | Emax | 104% |
| CC(C)N1CCn2cc(C(=O)NCc3ccc(F)cc3F)c(=O)c(O)c2C1=O | HIV-1 | viral replication, single-round vector infection | IN E138A/G140S/Q148H |  | EC50 | 95.9 ± 9.8 nM |
| CC(C)C[C@@H]1NC(=O)[C@H](CCCNC(=N)N)NC(=O)[C@@H]2CCCN2C(=O)[C@@H]2CSSC[C@H](NC(=O)CNC(=O)[C@@H]3CCCN3C(=O)[C@H](CCCCN)NC(=O)[C@H](CC(=O)O)NC(=O)[C@@H](NC(=O)CN)C(C)C)C(=O)N[C@@H](CCCNC(=N)N)C(=O)N[C@@H](Cc3ccc(O)cc3)C(=O)N[C@@H](CC(C)C)C(=O)N[C@@H](Cc3ccccc3)C(=O)NCC(=O)NCC(=O)N[C@H]3CSSC[C@H](NC(=O)CNC1=O)C(=O)N[C@@H](CCCCN)C(=O)NCC(=O)N[C@@H](CCCCN)C(=O)NCC(=O)N[C@@H](Cc1c[nH]cn1)C(=O)N[C@@H](CC(=O)O)C(=O)N[C@@H](Cc1ccc(O)cc1)C(=O)N[C@H](C(=O)N[C@@H](C)C(=O)N[C@@H](Cc1c[nH]c4ccccc14)C(=O)N[C@@H](CC(=O)O)C(=O)NCC(=O)N[C@H](C(=O)N[C@@H](Cc1ccccc1)C(=O)N[C@@H](CO)C(=O)N[C@@H](CC(=O)O)C(=O)O)[C@@H](C)O)CSSC[C@H](NC(=O)[C@H](CC(=O)O)NC(=O)[C@H](CC(=O)O)NC(=O)[C@H](CC(=O)O)NC(=O)[C@H](CO)NC(=O)[C@H](CCCCN)NC3=O)C(=O)N2 | SCN10A (Homo sapiens, UniProt Q9Y5Y9) |  |  | 1 µM | steady-state inactivation V0.5 | -29.9 ± 1.3 mV |
| Cc1cc(/C=C/C#N)cc(C)c1-n1cnc2cnc(Nc3ccc(C#N)cc3)nc21 | HIV-1 | viral replication, single-round infection | RT mutant Y181I |  | EC50 | 23.1 ± 4.5 nM |
| Cc1nc([C@@H](NC(=O)c2ccc(-c3ccc(Cl)cc3)[nH]2)[C@@H]2CCCCN2)sc1CO | HIV-1 | viral replication | MT-2, IIIB |  | IC50 | 7900 ± 600 nM |
| Cc1cc(C)cc(S(=O)(=O)c2c(C(N)=O)[nH]c3ccc(Cl)cc23)c1 | HIV-1 | viral replication | MT-4, Y181C mutant |  | EC50 | 39 ± 2.8 nM |
| COc1ccnc(Nc2ccc(C#N)cc2OCC=C(C)C)n1 | HIV-1 | MTT | MT-2, RT Y181C mutant | concentration not given | antiviral activity | inactive |
| COc1ccc(S(=O)(=O)O)cc1N=Nc1c(S(=O)(=O)O)cc2cc(NCc3nc(CNc4cc(C)c(N=Nc5cc(S(=O)(=O)O)cc6cc(S(=O)(=O)O)cc(O)c56)cc4OC)nc(Nc4ccccc4)n3)ccc2c1O | HIV-1 | pseudovirus infection | SF162 K35A |  | IC50 | 1460 ± 450 nM |

For quick reference, copied from above:
| Compound | tested on | test | test system | setting | quantity | result |
| --- | --- | --- | --- | --- | --- | --- |
| Cc1cc(/C=C/C#N)cc(C)c1-n1cnc2cnc(Nc3ccc(C#N)cc3)nc21 | HIV-1 | viral replication, single-round infection | RT mutant Y181I |  | EC50 | 23.1 ± 4.5 nM |
| Cc1nc([C@@H](NC(=O)c2ccc(-c3ccc(Cl)cc3)[nH]2)[C@@H]2CCCCN2)sc1CO | HIV-1 | viral replication | MT-2, IIIB |  | IC50 | 7900 ± 600 nM |
